Measured values collected from several papers.
Parts stem from different laboratories: compare values within a part only. Several values in a cell are separate wells, animals, samples, runs or records.

Study 1 — effect on: binding; mode: competitor; technique: NanoBRET; cells: HEK293
SMILES: CN1CCC[C@H]1COc1nc2c(c(N3CCN(S(C)(=O)=O)[C@@H](CC#N)C3)n1)CCN(c1cccc3cccc(Cl)c13)C2
KRAS Q61L: GTPase KRas (KRAS, Homo sapiens, UniProt P01116, Q61L)
KRAS Q61R: GTPase KRas (KRAS, Homo sapiens, UniProt P01116, Q61R)
target	conditions	normalized BRET
KRAS Q61L	3.7 µM	36.3% and 30.7% and 28.8%
KRAS Q61R	11.1 µM	67.8% and 90.4% and 65.4%
KRAS Q61L	137 nM	80.3% and 81.8% and 96%
KRAS Q61L	1.69 nM	109% and 98.7% and 99.3%
KRAS Q61R	1.69 nM	93.1% and 98.6% and 85.6%

Study 2 — effect on: ligand displacement; concentration: 10 µM
Target: Beta-1 adrenergic receptor (ADRB1, Homo sapiens, UniProt P08588)
Sequence of UniProt P08588 (whole entry, looked up): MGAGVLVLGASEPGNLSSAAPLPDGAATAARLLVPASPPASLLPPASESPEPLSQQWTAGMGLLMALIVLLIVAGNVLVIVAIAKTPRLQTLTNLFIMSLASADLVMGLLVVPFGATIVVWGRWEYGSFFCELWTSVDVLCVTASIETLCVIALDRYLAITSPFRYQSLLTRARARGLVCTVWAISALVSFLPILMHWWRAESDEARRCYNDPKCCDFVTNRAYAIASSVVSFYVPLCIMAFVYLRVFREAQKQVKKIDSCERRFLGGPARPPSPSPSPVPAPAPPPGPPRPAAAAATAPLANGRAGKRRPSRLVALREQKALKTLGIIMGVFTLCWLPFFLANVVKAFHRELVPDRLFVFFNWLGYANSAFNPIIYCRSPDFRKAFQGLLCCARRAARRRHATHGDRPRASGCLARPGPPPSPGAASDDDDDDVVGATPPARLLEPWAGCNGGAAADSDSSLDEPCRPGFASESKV
SMILES	inhibition [%]
Cc1ccc(-c2cnc([C@@]3(O)CC[C@H](C(=O)O)C(C)(C)C3)s2)cc1Nc1cccc(C(F)(F)F)n1	10.3
O=C(NCCCC1CCCCC1)c1ccc(CNC(=O)c2cnn(-c3ccccc3)c2C(F)(F)F)cc1	21.9
COc1cc(-c2cn(C3CCc4c(F)cccc4N(CC(F)(F)F)C3=O)nn2)ccc1-n1cnc(C)c1 (stereo not drawn)	2.45
CC1=C(C#N)C(c2ccc3[nH]nc(C)c3c2)C(C#N)=C(C)N1	2.16
O=C(NCc1ncc(C(F)(F)F)cc1Cl)c1ccc2c(c1)C1(CCS(=O)(=O)CC1)[C@H](C1CC1)N2S(=O)(=O)c1ccc(F)cc1	-0.08
COc1ccc2cc(OCC3(C(=O)O)CN(C(=O)c4ccc(F)cc4)C3)ccc2c1	-12.2
C[C@@H]1CN(c2cc(-c3n[nH]c4ccc(OC5(C)CC5)cc34)ncn2)C[C@H](C)O1	-20.6
CCc1ccccc1C(=O)Nc1n[nH]c2c(C)c(F)c(C3C(C#N)=C(C)N(C)C(C)=C3C#N)cc12	1.59
CN(C)C(=O)c1sc2nc(N3CCC(S(C)(=O)=O)CC3)cc(C(F)(F)F)c2c1N	-41.2
C[C@@H](c1cccc(C#N)c1)n1cc(Cl)cc(C(N)=O)c1=N	-30.6
Cc1noc([C@H]2C[C@@H](c3ccc(C(F)(F)F)cc3)CN(C(=O)N3CCS(=O)(=O)C3)C2)n1	3.66
O=C(N[C@H]1CCCCC/C=C\C2C[C@@]2(C(=O)O)NC(=O)[C@@H]2C[C@@H](Oc3ccncc3)CN2C1=O)OC1CCCC1 (stereo partly drawn)	-14.8
c1ccc(N2CCN(Cc3nc4ccccc4[nH]3)CC2)nc1	12.3
COCCOc1nc(-c2ccc(Cl)nc2)nc2c1CN(C(=O)c1ncn3ccccc13)CC2	16.8
Cc1ncc(-c2cc(Cl)ccc2F)cc1-n1c(=O)n(CC(N)=O)c2ccccc21	25.8
NS(=O)(=O)c1cc(NC(=O)Cc2ccccc2)ccc1Oc1cccc(Cl)c1	14.3
Cc1cc(Nc2nccc(C)n2)cc(-c2cnc([C@@]3(O)CC[C@H](C(=O)O)C(C)(C)C3)s2)c1	-9.08
C[C@H](c1ccc(F)cc1)N(Cc1cccc(C(=O)O)c1)C(=O)c1cnc2ccccc2c1	7.42
Nc1nc(NCc2ccccc2)nc(-c2ccccc2CO)n1	25.5
Cn1cc(Cl)c2c(Oc3c(F)cc(Nc4cc(Cl)nc(N)n4)cc3F)ccnc21	-2.51
CCOc1ccc(S(=O)(=O)Nc2ccc(Cl)cc2C#Cc2cnc(C(=O)O)cc2OC)c2ncccc12	18.8

Study 3 — species: C57BL/6 CES1-/- mice, EL4 tumour; route: subcutaneous; dose: 0.3 mg/kg/day DON equivalent; time: 5 days
SMILES: CC(=O)N[C@@H](Cc1c[nH]c2ccccc12)C(=O)N[C@@H](CCC(=O)C=[N+]=[N-])C(=O)OC(C)C
test	test system	conditions	how to read	metabolite peak intensity
LC-MS/MS metabolomics, refers to: proline	EL4 tumour		higher = more metabolite	3.79e+09 a.u. and 3.06e+09 a.u. and 3.75e+09 a.u. and 4.29e+09 a.u. and 3.58e+09 a.u. and 4.53e+09 a.u.
UPLC-MS/MS, refers to: homoserine	EL4, tumour	normalised to tissue mass	higher = more metabolite	6.55e+06 a.u. and 6.56e+06 a.u. and 1.18e+07 a.u. and 6.72e+06 a.u. and 2e+06 a.u. and 1.1e+07 a.u.
UPLC-MS/MS metabolomics, refers to: guanosine 3'-monophosphate	EL4 tumour	normalised to tissue mass		662000 a.u. and 367000 a.u. and 460000 a.u. and 246000 a.u. and 470000 a.u. and 641000 a.u.
UPLC-MS/MS metabolomics, refers to: reduced glutathione (GSH)	EL4 tumour	normalised to tissue mass		4.66e+06 a.u. and 1.07e+07 a.u. and 685000 a.u. and 5.41e+06 a.u. and 529000 a.u. and 5.61e+06 a.u.
UPLC-MS/MS metabolomics, refers to: N-methylproline	EL4 tumour	normalised to tissue mass	higher = more metabolite	1.34e+06 a.u. and 794000 a.u. and 1.42e+06 a.u. and 1.65e+06 a.u. and 2.51e+06 a.u. and 936000 a.u.
UPLC-MS/MS metabolomics, refers to: gamma-tocotrienol	EL4 tumour	normalised to tissue mass		803000 a.u. and 681000 a.u. and 861000 a.u. and 2.54e+06 a.u. and 1.63e+06 a.u. and 3.7e+06 a.u.

Study 4 — cell line: A-375; concentration: 100 µM; time: 36 h
SMILES	viability [%]
CN1CCC(=C2c3ccccc3CC(=O)c3sccc32)CC1	94.3
CC12CC3CC(C)(C1)CC(N)(C3)C2	86.6
CC(=O)OCC(=O)[C@H]1CC[C@H]2[C@@H]3CCC4=CC(=O)CC[C@]4(C)[C@H]3CC[C@]12C	69.2
O=C(O)CCCC[C@@H]1CCSS1	94.9
CCCCNc1cc(C(=O)O)cc(S(N)(=O)=O)c1Oc1ccccc1	117
Cc1cc(-n2c(=O)[nH]c(=O)n(C)c2=O)ccc1Oc1ccc(SC(F)(F)F)cc1	12.6
Nc1ncnc2c1ncn2[C@@H]1O[C@H](CO)[C@@H](O)[C@H]1O	98.6
N[C@H](C(=O)O)[C@H](O)c1ccc(O)c(O)c1	57

Study 5 — cell line: mouse MPNST tumor cells; technique: high-content nuclear imaging; refers to: cell number; concentration: 10 µM; time: 12 h; notes: mean of 2 replicates; baseline: plate mean; reading: higher = more cells
Compound	nuclei count
Cc1c(C)c2c(c(C)c1O)CCC(C)(COc1ccc(CC3SC(=O)NC3=O)cc1)O2 (stereo not drawn)	1.14 z-score and 2.7 z-score
NC(=O)c1cccc(-c2cccc(OC(=O)NC3CCCCC3)c2)c1	1.14 z-score
COc1cc2c(cc1C(F)(F)F)N(C(=O)Nc1cc(F)cc(-c3cccnc3)c1)CC2	-5.09 z-score
NCC(=O)Nc1ccc(-n2nc(C(F)(F)F)cc2-c2ccc3c(ccc4ccccc43)c2)cc1	-6.32 z-score
Nc1nccc(-c2ccc3noc(-c4ccc(Cl)cc4)c3c2)n1	2.41 z-score

For quick reference, copied from above (study 1):
target	conditions	normalized BRET
KRAS Q61R	11.1 µM	67.8% and 90.4% and 65.4%
KRAS Q61L	137 nM	80.3% and 81.8% and 96%
KRAS Q61L	3.7 µM	36.3% and 30.7% and 28.8%
KRAS Q61R	1.69 nM	93.1% and 98.6% and 85.6%
